Published values gathered from unrelated publications.
Lines come from different studies, so protocols differ.
Organism: Staphylococcus aureus

For `N=C(N)NCCC[C@H](NC(=O)[C@H](Cc1c[nH]c2ccccc12)NC(=O)[C@@H](N)CCCNC(=N)N)C(=O)N[C@@H](Cc1c[nH]c2ccccc12)C(=O)N[C@@H](Cc1ccccc1)C(=O)N[C@@H](CCC(N)=O)C(=O)N[C@@H](Cc1ccccc1)C(=O)N[C@@H](CCC(N)=O)C(=O)N[C@@H](Cc1ccccc1)C(=O)N[C@@H](CCCCN)C(N)=O`, the MIC was 71 µM (broth microdilution, optical density; ATCC 25923).
For `CC[C@H](C)[C@H](N)C(=O)N[C@@H](CC(C)C)C(=O)NCC(=O)N[C@@H](CCCNC(=N)N)C(=O)N[C@H](C(=O)N[C@@H](Cc1c[nH]c2ccccc12)C(=O)N[C@@H](CCCCN)C(=O)NCC(=O)N[C@H](C(=O)N[C@@H](CCCCN)C(=O)N[C@@H](CC(=O)O)C(=O)N[C@H](C(=O)N[C@@H](CC(C)C)C(N)=O)[C@@H](C)CC)[C@@H](C)CC)[C@@H](C)CC`, the MIC was 6.25 µM (broth microdilution; MRSA ATCC 33591, Mueller-Hinton broth; 16 h, 37 °C).
For `CCCCCCC#Cc1cncc(-c2nnc(SCc3ccc([N+](=O)[O-])o3)n2CCCN)c1`, the MIC was greater than 64 mg/L (broth microdilution; Mu50 MRSA VISA; 18 to 24 h, 37 °C).
The MIC of `CC[C@H](C)[C@H](NC(=O)CN)C(=O)N[C@@H](C)C(=O)N[C@@H](CCCCN)C(=O)N[C@@H](C)C(=O)N[C@H](C(=O)N[C@@H](CCCCN)C(=O)N[C@@H](CCCCN)C(=O)N[C@H](C(=O)N[C@@H](C)C(=O)N[C@@H](CCCCN)C(=O)N[C@@H](C)C(=O)N[C@@H](CC(C)C)C(=O)NCC(N)=O)[C@@H](C)CC)[C@@H](C)CC` is reported as 2 mg/L (ATCC 29213, Mueller-Hinton broth; 12 h, 37 °C).
`CC[C@H](C)[C@H](NC(=O)[C@H](CCCCN)NC(=O)[C@H](CCCCN)NC(=O)CNC(=O)[C@H](CCCCN)NC(=O)[C@H](CC(C)C)NC(=O)[C@H](CCCCN)NC(=O)[C@H](CCCNC(=N)N)NC(=O)[C@@H](NC(=O)[C@H](CC(C)C)NC(=O)[C@H](CCCNC(=N)N)NC(=O)[C@@H](N)CCCNC(=N)N)[C@@H](C)CC)C(=O)N[C@@H](Cc1ccc(O)cc1)C(=O)N[C@@H](CC(C)C)C(=O)N[C@@H](Cc1ccc(O)cc1)C(=O)N[C@@H](Cc1ccccc1)C(=O)N[C@@H](CCCCN)C(=O)N[C@@H](CC(C)C)C(=O)N[C@@H](CCC(N)=O)C(=O)N[C@@H](CC(C)C)C(=O)N[C@@H](CC(C)C)C(=O)N[C@@H](CCCCN)C(=O)N[C@@H](CCCCN)C(N)=O` has an MIC of 16 µM (KCTC 1621, Mueller-Hinton broth; together with: 1 mM MgCl2).
With `c1ccc(CCOC2CCCc3c2[nH]c2ccccc32)cc1` (stereo not drawn) the MIC was greater than 16 mg/L (broth microdilution; Mu50 VISA).
The MIC of `CN[C@H](CC(C)C)C(=O)N[C@H]1C(=O)N[C@@H](CC(N)=O)C(=O)N[C@H]2C(=O)N[C@H]3C(=O)N[C@H](C(=O)N[C@H](C(=O)O)c4cc(O)cc(O)c4-c4cc3ccc4O)[C@H](O)c3ccc(c(Cl)c3)Oc3cc2cc(c3O[C@@H]2O[C@H](CO)[C@@H](O)[C@H](O)[C@H]2O[C@H]2C[C@](C)(N)[C@H](O)[C@H](C)O2)Oc2ccc(cc2Cl)[C@H]1O` is reported as 8 mg/L (broth microdilution; VISA NRS402, tryptic soy broth; 20 to 24 h, 37 °C, 0.002% polysorbate 80).
For `CC[C@H](C)[C@H](NC(=O)[C@H](CC(C)C)NC(=O)[C@H](CCCCN)NC(=O)[C@H](CC(C)C)NC(=O)CNC(=O)[C@@H](NC(=O)[C@H](CO)NC(=O)[C@@H](NC(=O)[C@@H](NC(=O)[C@H](CCC(N)=O)NC(=O)[C@H](Cc1c[nH]c2ccccc12)NC(=O)[C@H](CCCNC(=N)N)NC(=O)[C@H](CC(N)=O)NC(=O)[C@H](CCCNC(=N)N)NC(=O)[C@H](CCCNC(=N)N)NC(=O)[C@@H](NC(=O)[C@H](Cc1ccccc1)NC(=O)[C@H](CCCNC(=N)N)NC(=O)CNC(=O)[C@H](C)NC(=O)[C@H](CCCNC(=N)N)NC(=O)[C@H](CCCNC(=N)N)NC(=O)[C@H](CCCCN)NC(=O)[C@H](Cc1ccccc1)NC(=O)[C@H](CCCNC(=N)N)NC(=O)CNC(=O)[C@H](Cc1c[nH]c2ccccc12)NC(=O)[C@H](CCCNC(=N)N)NC(=O)CNC(=O)[C@H](CCCNC(=N)N)NC(=O)[C@@H](N)[C@@H](C)O)[C@@H](C)CC)[C@@H](C)CC)[C@@H](C)CC)[C@@H](C)O)C(=O)NCC(=O)O`, the MIC was 1.2 µM (CMCC 26003; highest concentration 50 µM).
The MIC of `CC[C@H](C)[C@H](NC(=O)[C@H](Cc1ccc(O)cc1)NC(=O)[C@@H](NC(=O)[C@H](Cc1ccc(O)cc1)NC(=O)[C@@H]1CCCN1C(=O)[C@@H](NC(=O)[C@H](C)N)[C@@H](C)CC)[C@@H](C)CC)C(=O)N[C@@H](Cc1c[nH]c2ccccc12)C(=O)N[C@@H](CCCNC(=N)N)C(=O)N[C@@H](CC(C)C)C(=O)N[C@@H](CC(C)C)C(=O)N[C@@H](CCCNC(=N)N)C(=O)N[C@@H](CCCCN)C(=O)NCC(=O)O` is reported as 3.75 µM (broth microdilution; ATCC 35556; 18 h, 37 °C).
`CN1C(=O)Cc2ccc(F)c(CCNC[C@H]3CN(c4ccc5c(n4)NC(=O)CO5)C(=O)O3)c21` has an MIC of 0.03 mg/L (ATCC 29213).
The MIC of `CC(C)C[C@@H](NC(=O)CNC(=O)[C@@H](CCCCN)NC(=O)[C@@H](CC(C)C)NC(=O)[C@@H](CCCCN)NC(=O)[C@@H](CCCNC(=N)N)NC(=O)[C@@H](CC(C)C)NC(=O)[C@@H](CC(C)C)NC(=O)[C@@H](CCCNC(=N)N)NC(=O)[C@H](N)CCCNC(=N)N)C(=O)N[C@H](CCCCN)C(=O)N[C@H](CCCCN)C(=O)N[C@H](Cc1ccc(O)cc1)C(=O)N[C@H](CC(C)C)C(=O)N[C@H](Cc1ccc(O)cc1)C(=O)N[C@H](Cc1ccccc1)C(=O)N[C@H](CCCCN)C(=O)N[C@H](CC(C)C)C(=O)N[C@H](CCC(N)=O)C(=O)N[C@H](CC(C)C)C(=O)N[C@H](CC(C)C)C(=O)N[C@H](CCCCN)C(=O)N[C@H](CCCCN)C(N)=O` is reported as 4 µM (CCARM 3095, methicillin-resistant, Mueller-Hinton broth; 24 h).
With `CC[C@H](C)[C@H](NC(=O)CNC(=O)[C@H](C)NC(=O)[C@@H](NC(=O)[C@@H](NC(=O)[C@@H](NC(=O)[C@H](CCCNC(=N)N)NC(=O)[C@@H](NC(=O)[C@@H](NC(=O)[C@@H](NC(=O)[C@@H]1CCCN1C(=O)[C@H](Cc1c[nH]c2ccccc12)NC(=O)[C@@H](NC(=O)[C@H](CCCNC(=N)N)NC(=O)[C@H](CCCCN)NC(=O)[C@@H](NC(=O)[C@@H](N)CCCNC(=N)N)[C@@H](C)CC)C(C)C)C(C)C)C(C)C)[C@@H](C)CC)[C@@H](C)O)C(C)C)C(C)C)C(=O)N[C@@H](CC(N)=O)C(=O)N[C@@H](CC(C)C)C(=O)N[C@@H](Cc1ccc(O)cc1)C(=O)N[C@@H](CCCNC(=N)N)C(=O)N[C@@H](C)C(=O)N[C@H](C(=O)N[C@@H](CCCCN)C(=O)N[C@@H](CCCNC(=N)N)C(=O)N[C@@H](CCCCN)C(=O)O)[C@@H](C)CC` the MIC was 0.354 µM (broth microdilution; ATCC 25923, Mueller-Hinton broth; 16 to 20 h, 37 °C).

Some of these lines once more:
The MIC of `CC[C@H](C)[C@H](NC(=O)[C@H](Cc1ccc(O)cc1)NC(=O)[C@@H](NC(=O)[C@H](Cc1ccc(O)cc1)NC(=O)[C@@H]1CCCN1C(=O)[C@@H](NC(=O)[C@H](C)N)[C@@H](C)CC)[C@@H](C)CC)C(=O)N[C@@H](Cc1c[nH]c2ccccc12)C(=O)N[C@@H](CCCNC(=N)N)C(=O)N[C@@H](CC(C)C)C(=O)N[C@@H](CC(C)C)C(=O)N[C@@H](CCCNC(=N)N)C(=O)N[C@@H](CCCCN)C(=O)NCC(=O)O` is reported as 3.75 µM (broth microdilution; ATCC 35556; 18 h, 37 °C).
`CN1C(=O)Cc2ccc(F)c(CCNC[C@H]3CN(c4ccc5c(n4)NC(=O)CO5)C(=O)O3)c21` has an MIC of 0.03 mg/L (ATCC 29213).
